Results gathered from unrelated publications.
± marks the error that the study gave.
UniProt P37136, sequence (whole entry, looked up): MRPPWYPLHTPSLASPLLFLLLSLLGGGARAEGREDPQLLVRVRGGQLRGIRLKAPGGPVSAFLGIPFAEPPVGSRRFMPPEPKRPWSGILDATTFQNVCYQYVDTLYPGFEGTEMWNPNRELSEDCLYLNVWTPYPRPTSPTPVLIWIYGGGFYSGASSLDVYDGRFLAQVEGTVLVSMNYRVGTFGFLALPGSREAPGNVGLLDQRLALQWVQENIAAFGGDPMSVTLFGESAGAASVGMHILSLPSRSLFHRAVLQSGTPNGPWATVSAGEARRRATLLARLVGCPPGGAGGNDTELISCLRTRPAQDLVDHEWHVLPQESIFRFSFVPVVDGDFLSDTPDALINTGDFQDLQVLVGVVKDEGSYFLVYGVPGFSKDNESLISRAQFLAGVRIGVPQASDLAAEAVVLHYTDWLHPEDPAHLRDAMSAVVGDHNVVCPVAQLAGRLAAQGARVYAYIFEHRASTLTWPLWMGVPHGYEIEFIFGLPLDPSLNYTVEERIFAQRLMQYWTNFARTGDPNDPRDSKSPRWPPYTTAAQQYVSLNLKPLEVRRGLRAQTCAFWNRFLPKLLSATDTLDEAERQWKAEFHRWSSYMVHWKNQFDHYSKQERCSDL

Substance	target or system	test	test system	setting	measurement	value
semaglutide		item: action taken unknown	human, safety analysis set	concentration not given, 32 weeks, run-in	participants with adverse events	0%
maraviroc			black CYP3A5 poor metabolizers, plasma	300 mg twice daily	AUC(0-12h)	3440 ng·h/mL
chicoric acid		UPLC	broiler chicken, plasma	oral gavage, 20 mg/kg	terminal half-life	4.26 ± 1.33 h
deucravacitinib			human volunteers	dose not given, single ascending dose	subjects with dyspepsia	10%
vorinostat glucuronide			human, plasma	oral, 400 mg vorinostat three times daily, 3 days, together with: idarubicin	Cmax	4.52 µM
phoxim-oxon	Ache (Rattus norvegicus, UniProt P37136)	inhibitor	rat, postnatal day 1, rat brain homogenate	15 min, 37 °C	IC50	50 nM

Repeated from above:
Substance	target or system	test	test system	setting	measurement	value
deucravacitinib			human volunteers	dose not given, single ascending dose	subjects with dyspepsia	10%
